Results from different studies.
Lines come from different studies, so protocols differ. Numbers after ± are the reported error. Converted amounts (≈) assume the structure as drawn.

SMILES	assay	test system	conditions	how to read	quantity	value
CCCC(CCC)NC(=O)c1ccc(OS(=O)(=O)O)c(OC)c1		female Sprague-Dawley rats, plasma	oral, 200 mg/kg of parent drug	relative to: 200 over 20 mg/kg dose	Cmax ratio	2.84
CC1(C)CCC(CN2CCN(c3ccc(C(=O)NS(=O)(=O)c4ccc(NCC5COCCO5)c([N+](=O)[O-])c4)c(N4CCCOc5nc6[nH]ccc6cc54)c3)CC2)=C(c2ccc(Cl)cc2)C1 (stereo not drawn)		Beagle dogs, both sexes	oral, 14 days once daily		platelet-toxic dose	> 30 mg/kg
CC(C)c1cnc(-c2cc(Cl)ccc2F)cc1Nc1ccncc1C(=O)NC(CO)CO	monotherapy, item: vomiting	human patients	oral, dose not given, grade 4, phase I A		patients with treatment-related adverse event	0%
CC/C=C\C/C=C\C/C=C\C/C=C\C/C=C\CCCCOC(CC)C(=O)O (stereo not drawn)	radioactivity, 14C-labelled	Wistar rat, male, whole blood	oral, 100 mg/kg, 8 h		tissue concentration	28.1 µg equivalents/g tissue
COc1ccc(/N=N/c2ccc(OC[C@@H](O)CNC(C)C)cc2)cc1	UV/Vis spectroscopy	Epac buffer with 0.5 % DMSO	50 µM, together with: 365 nm light, 0.1 mW/mm^2		trans to cis time constant	3.1 s⁻¹
CN1CCC[C@]1(C)/C=C/S(=O)(=O)NC(=O)Nc1c2c(cc3c1CCC3)CCC2		human, plasma	oral, 100 mg twice daily, day 1, tau 12 h, multiple ascending dose		AUC(0-tau)	66800 ng·h/mL
Cc1ccc(-c2ccc(-c3cc4sccc4o3)cn2)nc1		DMF	together with: quinine bisulfate reference		fluorescence quantum yield	0.67
CN(O)C(=O)CCC(=O)NCCCN(CCCCN(CCCNC(=O)CCC(=O)N(C)O)C(=O)CCC(=O)N(C)O)C(=O)CCC(=O)N(C)O.[89Zr]		aqueous solution	7 d, pH 7.2, 37 °C, transmetalation, together with: FeCl3 10-fold excess		intact compound remaining	97%
CC[C@H](C)[C@H](NC(=O)[C@H](Cc1ccc(O)cc1)NC(=O)[C@H](CCCNC(=N)N)NC(=O)[C@H](CCCNC(=N)N)NC(=O)[C@H](CC(C)C)NC(=O)[C@H](CC(=O)O)NC(=O)[C@H](C)NC(=O)[C@H](C)NC(=O)[C@H](Cc1ccc(O)cc1)NC(=O)[C@H](CCC(N)=O)NC(=O)[C@H](C)NC(=O)[C@H](CCSC)NC(=O)[C@H](CCC(N)=O)NC(=O)[C@H](CCC(=O)O)NC(=O)[C@@H]1CCCN1C(=O)[C@@H](NC(=O)[C@H](C)NC(=O)[C@H](CC(N)=O)NC(=O)[C@H](CC(=O)O)NC(=O)CNC(=O)[C@@H]1CCCN1C(=O)[C@H](Cc1ccc(O)cc1)NC(=O)[C@@H](NC(=O)[C@@H]1CCCN1C(=O)[C@H](CCC(=O)O)NC(=O)[C@H](CC(C)C)NC(=O)[C@@H]1CCCN1C(=O)[C@H](C)N)C(C)C)[C@@H](C)O)C(=O)N[C@@H](CC(N)=O)C(=O)N[C@@H](CCSC)C(=O)N[C@@H](CC(C)C)C(=O)N[C@H](C(=O)N[C@@H](CCCNC(=N)N)C(=O)N1CCC[C@H]1C(=O)N[C@@H](CCCNC(=N)N)C(=O)N[C@@H](Cc1ccc(O)cc1)C(N)=O)[C@@H](C)O	dynamic light scattering	PBS	4 µM, pH 7.4, larger population, no SSM		hydrodynamic diameter	773 ± 163 nm
CCCC1OC2CC3C4CCC5=CC(=O)C=CC5(C)C4C(O)CC3(C)C2(C(=O)COC(=O)CN)O1 (stereo not drawn)		diluted rat plasma	200 µg/mL, 37 °C, 5.7-fold dilution, 2% DMSO		time to rapid hydrolysis	≤ 6 h
Cn1c(=O)oc2ccc(-c3ccc(CC(C#N)NC(=O)C4CNCCCO4)c(F)c3)cc21 (stereo not drawn)	item: skin exfoliation	human	40 mg, treatment-related, single dose, fasted		subjects with adverse event	0%
O=C([O-])CN1CCN(CC(=O)[O-])CCN(CC(=O)NCC2CCC(C(=O)NC(Cc3ccc4ccccc4c3)C(=O)NCCCCC(NC(=O)NC(CCC(=O)O)C(=O)O)C(=O)O)CC2)CCN(CC(=O)[O-])CC1.[44Sc+3] (stereo not drawn)	transchelation stability		24 h, 37 °C, together with: DTPA 10 mM		intact complex	95.1 ± 0.8%
CCOC(=O)CN1CCN(CC(=O)OCC)CCN(Cc2cc(-c3nc4ccccc4s3)cc(OC)c2O)CC1	UV-Vis pH titration		25 °C, ionic strength 0.1 M NaCl		pKa2	7.41
CN1CCC(N[C@@H]2CCc3[nH]c4c(C(N)=O)ccc(-c5ccccc5Cl)c4c3C2)CC1		BALB/c mice, plasma	intravenous, 2 mg/kg		clearance	120 ± 24.2 mL/min/kg
CC(C)[C@H](NC(=O)CNC(=O)[C@H](CCC(N)=O)NC(=O)[C@H](C)N)C(=O)O	LC-MS/MS	human, male, plasma	intravenous, 20 mg/kg three times daily, day 3, first dose, 10 min infusion, geometric mean		Cmax	4540 ng/mL
O=c1c2ccccc2[se]n1CCCCCCn1[se]c2ccccc2c1=O		20% SOL in water	24 h, 25 °C		solubility	880 µg/mL (≈ 1840 µM)
COc1cc(NC(C)=O)c2c(c1O)-c1c(OC)c(OC)cc3c1C(C2)N(C)CC3 (stereo not drawn)		rat kidney homogenate	0.5 µg/mL, time not given, three freeze-thaw cycles		remaining compound	101 ± 1.9%

SMILES	assay	test system	conditions	how to read	quantity	value
Oc1ccc2ccccc2c1/N=N/c1ccc(/N=N/c2ccccc2)cc1		extracted rat blood QC samples	0.2 µg/L, 2 h, room temperature, short-term stability		measured concentration	0.207 µg/L
CCC1CNC(CC)CN(C(C(=O)[O-])c2ccc(C(=O)[O-])cc2)C(CC)CN(CC(=O)[O-])C(CC)CN1.[Mn+2] (stereo not drawn)	ICP-MS	BALB/c mouse, unanaesthetised	intravenous, 0.05 mmol/kg, 5 min	relative to: injected dose	Mn uptake in liver	8.55%
CC(=O)N[C@H](CC(=O)O)C(=O)N[C@H](Cc1c[nH]c2ccccc12)C(=O)N[C@H](Cc1ccccc1)C(=O)N[C@H](CCCCN)C(=O)N[C@H](C)C(=O)N[C@H](Cc1ccccc1)C(=O)N[C@H](Cc1ccc(O)cc1)C(=O)N[C@H](CC(=O)O)C(=O)N[C@H](CCCCN)C(=O)N[C@@H](C(=O)N[C@H](C)C(=O)N[C@H](CCC(=O)O)C(=O)N[C@H](CCCCN)C(=O)N[C@H](Cc1ccccc1)C(=O)N[C@H](CCCCN)C(=O)N[C@H](CCC(=O)O)C(=O)N[C@H](C)C(=O)N[C@H](Cc1ccccc1)C(N)=O)C(C)C		statin-treated high-risk CHD women, plasma	oral, 500 mg daily, day 1, 0 to 2 h, mean, all subjects		Cmax	178 ng/mL
Oc1cccc(-c2cccc(O)n2)n1.[Cl-].[Cl-].[Ru+2].c1cnc2c(c1)c1c(c3cccnc32)OCCO1.c1cnc2c(c1)c1c(c3cccnc32)OCCO1	shake flask	octanol/acetate buffer	pH 4.00		logD	0.83
CC(C)CCN(c1nc(C#N)nc(NC2COC2)n1)C(C)c1ccc(F)cc1 (stereo not drawn)		female CD-1 mice	intraperitoneal, 10 mg/kg, 4 h		plasma concentration	4.7 ng/mL
COc1ccc(/C=C/c2ccc(-c3ccc(C)cn3)nc2)cc1	TCSPC	water, HEPES 100 mM	pH 7.4		fluorescence lifetime	1.11 ns
NCC(=O)N1CCC[C@H]1C(=O)N1C[C@H](O)C[C@H]1C(=O)O	potentiometric titration	water	40 °C, 0.15 mol/dm3 NaCl		pKa2	2.71
CC[C@H](C)[C@H](NC(=O)[C@H](CC(C)C)NC(=O)[C@H](Cc1c[nH]c2ccccc12)NC(=O)[C@H](C)NC(=O)[C@@H](NC(=O)[C@H](Cc1ccccc1)NC(=O)[C@H](CC(=O)O)NC(=O)[C@H](CCCNC(=N)N)NC(=O)[C@H](C)NC(=O)[C@H](C)NC(=O)[C@H](CC(C)C)NC(=O)[C@H](C)NC(=O)[C@H](CC(=O)O)NC(=O)[C@H](CC(C)C)NC(=O)[C@@H](NC(=O)[C@@H](NC(=O)[C@H](C)NC(=O)[C@H](CC(C)C)NC(=O)[C@H](CCC(=O)O)NC(=O)[C@H](CO)NC(=O)[C@H](CO)NC(=O)[C@H](Cc1ccccc1)NC(=O)[C@@H](NC(=O)CNC(=O)[C@H](CCC(=O)O)NC(=O)CNC(=O)[C@@H](N)Cc1c[nH]cn1)[C@@H](C)O)[C@@H](C)O)[C@@H](C)CC)[C@@H](C)CC)C(=O)N[C@@H](C)C(=O)N[C@H](C(=O)N[C@@H](CCCCN)C(=O)N[C@H](C(=O)N[C@H](C(=O)N[C@@H](CC(=O)O)C(=O)N[C@@H](CCCCN)C(=O)O)[C@@H](C)O)[C@@H](C)CC)[C@@H](C)O		healthy human subjects, plasma	subcutaneous, 5 mg once weekly, day 36 after 6 doses, steady state, mean		terminal half-life	231 h
NS(=O)(=O)c1ccc(-n2cc(Cn3c(=O)c(Cc4ccccc4)nc4ccccc43)nn2)cc1	MTT	rat primary colonocytes, Albino rat, male	72 h, concentration at 100% viability		safe concentration	0.193 ± 0.017 µM
CC[C@@H](C)N([11CH3])C(=O)c1nc(-c2ccc(Cl)cc2)c2ccccc2n1	ultrafiltration	rhesus monkey, plasma	baseline scan		plasma free fraction	0.048
CCc1cc(Nc2nc(-c3ccc(-n4cnc(C)c4)c(F)c3)cs2)c(C)cc1C		human, both sexes, plasma	oral, 400 mg, day 1, multiple dose, geometric mean		terminal half-life	6.5 h
NS(=O)(=O)c1ccc(N2N=C(C(F)(F)F)CC2c2ccc(F)cc2F)cc1 (stereo not drawn)		beagle dog, plasma	oral, 4 mg/kg, single dose		half-life	29.3 h
C[Si]1(C)CNC(=O)c2ccccc21		Sprague-Dawley rat, male, plasma	intravenous, 1 mg/kg		clearance	30 ± 6 mL/min/kg
NCCCC(=O)OCC(=O)c1ccc(O)cc1F.O=C(O)C(F)(F)F	photolysis, item: GABA appearance	unbuffered water			quantum yield	0.27
CC(C)(C)ONc1nc(Nc2ccnc(C(F)(F)F)c2)nc(-c2cccc(C(F)(F)F)n2)n1		female Balb/cA nude mice xenograft	oral, 18.05 mg/kg, Cmax	relative to: tumour over plasma	tissue/plasma ratio	4.4
CCCC[C@H](NC(=O)CNC(=O)CNC(=O)CN1CCN(CC(=O)O)CCN(CC(=O)O)CCN(CC(=O)O)CC1)C(=O)N[C@H]1CC(=O)NCCCC[C@@H](C(N)=O)NC(=O)[C@H](Cc2c[nH]c3ccccc23)NC(=O)[C@H](CCCNC(=N)N)NC(=O)[C@@H](Cc2ccccc2)NC(=O)[C@H](Cc2c[nH]cn2)NC1=O [gallium-67 labelled]		female C57 mice, B16/F1 melanoma	intravenous, 0.037 MBq, 0.5 h	relative to: tumour over liver	tumour to tissue ratio	14.8
